Measured values of several laboratories.
Numbered parts are unrelated; each lists some results of a single study. Numbers after ± are the reported error.

Block 1
Organism: SARS-CoV-2 Wuhan spike VSV pseudovirus
Effect on: pseudovirus entry
Concentration: concentration not given
| Structure (SMILES) | inhibition |
| --- | --- |
| CCn1nc(C)c([N+](=O)[O-])c1C(=O)NCC(=O)c1ccc(Cl)cc1 | 42% |
| Clc1ccc(-c2noc(CN3CCN(c4ncnc5ccccc45)CC3)n2)cc1 | 40% |
| COc1ccccc1C(=O)N1C2CCC1c1cnc(-c3ccc(F)cc3)nc1C2 (centres unmarked) | 41% |
| Cc1noc(-c2ccc(S(=O)(=O)NCc3cccs3)o2)c1C | 43% |
| Cc1ccc(N2CCN(C(=O)CC3(CC4=Nc5ccccc5S(=O)(=O)N4)CCCC3)CC2)c(C)c1 | 40% |
| Cc1ccc(C(=O)Nc2ccc(Br)cn2)cc1C | 38% |
| N#CCSc1ccccc1NC(=O)Cn1ncc(Cl)c(Cl)c1=O | 45% |
| CC(=O)N1CCSc2ccc(S(=O)(=O)N3CCN(CCOc4ccc(Cl)cc4)CC3)cc21 | 41% |
| COc1cccc(N2CCN(c3ncc4c(n3)CC(c3ccccc3O)CC4=O)CC2)c1 (centres unmarked) | 40% |
| Cc1ccc2c(=O)c(C(=O)Nc3ccccc3)cn(CC(=O)NC3CCCC3)c2n1 | 42% |

Other studies, line by line
rep nsp14: Replicase polyprotein 1ab, nsp14 (rep, Severe acute respiratory syndrome coronavirus 2, UniProt P0DTD1)
rep nsp12 RdRp: Replicase polyprotein 1ab, nsp12 RdRp (rep, Severe acute respiratory syndrome coronavirus 2, UniProt P0DTD1)
rep papain-like protease: Replicase polyprotein 1ab, papain-like protease (rep, Severe acute respiratory syndrome coronavirus 2, UniProt P0DTD1)
| Compound | target or system | assay | test system | conditions | scale | quantity | value |
| --- | --- | --- | --- | --- | --- | --- | --- |
| CCC(CC)[C@H](NC(C)=O)[C@@H]1[C@H](O)[C@@H](C(=O)O)C[C@H]1N=C(N)N | neuraminidase (Influenza B virus, UniProt C0LT34, I221N) | – | – | – | – | IC50 | 131 ± 13.7 nM |
| Cc1ccc(NS(=O)(=O)c2cccc(C(=O)NC3CCN(c4ncnc5[nH]cnc45)CC3)c2)cc1 | rep nsp14 | – | – | 0.04883 µM | – | inhibition | 3.94% |
| N#C[C@@]1(n2ccc(N)nc2=O)O[C@H](CO)[C@@H](O)[C@H]1O | SARS-CoV-2 | viral replication | Calu-3, Alpha | – | – | EC90 | 5400 ± 5000 nM |
| CC(C)=CCNc1ncnc2c1ncn2[C@@H]1O[C@H](CO)[C@@H](O)[C@H]1O | SARS-CoV-2 | infectious virus yield | Vero C1008, Omicron BA.1 | 48 h | – | EC50 | ~400 nM |
| CC1(C)CC[C@]2(C(=O)O)CC[C@]3(C)C(=CC[C@@H]4[C@@]5(C)CCC(=O)C(C)(C)[C@@H]5CC[C@]43C)[C@@H]2C1 | rep nsp12 RdRp | binding, biolayer interferometry | – | 50 µM | – | BLI response | 0.09 nm |
| CCC(CC)COC(=O)[C@H](C)N[P@](=O)(OC[C@H]1O[C@@](C#N)(c2ccc3c(N)ncnn23)[C@H](O)[C@@H]1O)Oc1ccccc1 | SARS-CoV-2 | viral replication | Vero, Alpha | – | – | EC50 | 200 ± 200 nM |
| Oc1ccc(C2=Cc3ccc(O)cc3OC2)cc1 | rep papain-like protease | – | – | concentration not given, C111S mutant | reference: positive control | activity | 17.5% |
| COC(=O)N[C@H](C(=O)N1CC2(CC2)C[C@H]1c1ncc(-c2ccc3c(c2)C(F)(F)c2cc(-c4ccc5nc([C@@H]6[C@H]7CC[C@H](C7)N6C(=O)[C@@H](NC(=O)OC)C(C)C)[nH]c5c4)ccc2-3)[nH]1)C(C)C | rep nsp12 RdRp | binding, biolayer interferometry | – | concentration not given | – | BLI response | 0.01 nm |
| O=C(Cc1ccccc1)Nc1nnc(CCSCCc2nnc(NC(=O)Cc3ccccc3)s2)s1 | rep papain-like protease | – | – | concentration not given, C111S mutant | reference: positive control | activity | 25.8% |
| O=C(NC1CCN(c2ncnc3[nH]cnc23)CC1)c1cccc(S(=O)(=O)N2CCC2)c1 | rep nsp14 | NSP14 enzyme activity, inhibitor | – | 0.7812 µM | – | inhibition | 11.1% |
